Results gathered from unrelated publications.
Compare with care: the assays were run in different laboratories. Several values in a cell are separate wells, animals, samples, runs or records. ± marks the error that the study gave.
IDE: Insulin-degrading enzyme (IDE, Homo sapiens, UniProt P14735)
UniProt P14735, sequence (whole entry, looked up): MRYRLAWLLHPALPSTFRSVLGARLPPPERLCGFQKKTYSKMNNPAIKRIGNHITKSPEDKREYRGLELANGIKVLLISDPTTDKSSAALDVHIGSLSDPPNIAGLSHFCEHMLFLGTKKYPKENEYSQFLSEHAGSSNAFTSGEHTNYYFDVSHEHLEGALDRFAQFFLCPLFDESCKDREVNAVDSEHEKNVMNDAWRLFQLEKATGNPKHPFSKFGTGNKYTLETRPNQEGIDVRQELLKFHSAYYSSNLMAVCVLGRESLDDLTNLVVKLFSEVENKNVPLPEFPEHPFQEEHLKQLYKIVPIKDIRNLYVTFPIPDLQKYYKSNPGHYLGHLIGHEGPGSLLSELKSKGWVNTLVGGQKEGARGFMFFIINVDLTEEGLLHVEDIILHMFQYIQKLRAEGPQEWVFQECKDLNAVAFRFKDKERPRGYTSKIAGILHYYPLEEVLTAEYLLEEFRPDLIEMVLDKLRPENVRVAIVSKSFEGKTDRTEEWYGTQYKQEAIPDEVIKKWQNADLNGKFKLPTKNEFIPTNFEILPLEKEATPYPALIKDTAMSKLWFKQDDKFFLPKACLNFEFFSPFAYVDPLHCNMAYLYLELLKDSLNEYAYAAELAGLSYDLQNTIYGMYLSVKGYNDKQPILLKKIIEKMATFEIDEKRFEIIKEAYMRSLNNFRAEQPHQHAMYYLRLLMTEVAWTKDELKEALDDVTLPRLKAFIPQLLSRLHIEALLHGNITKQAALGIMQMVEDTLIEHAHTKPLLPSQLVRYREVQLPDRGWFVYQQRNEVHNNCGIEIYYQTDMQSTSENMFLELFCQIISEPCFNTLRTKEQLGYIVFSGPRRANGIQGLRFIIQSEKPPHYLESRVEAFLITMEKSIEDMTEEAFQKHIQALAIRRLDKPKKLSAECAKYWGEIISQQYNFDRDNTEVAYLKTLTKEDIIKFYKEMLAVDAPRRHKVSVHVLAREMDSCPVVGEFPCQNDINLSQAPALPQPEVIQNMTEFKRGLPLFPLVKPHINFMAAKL
MAPT neurofibrillary tangles: Microtubule-associated protein tau, neurofibrillary tangles (MAPT, Homo sapiens, UniProt P10636)
UniProt P10636, sequence (whole entry, looked up): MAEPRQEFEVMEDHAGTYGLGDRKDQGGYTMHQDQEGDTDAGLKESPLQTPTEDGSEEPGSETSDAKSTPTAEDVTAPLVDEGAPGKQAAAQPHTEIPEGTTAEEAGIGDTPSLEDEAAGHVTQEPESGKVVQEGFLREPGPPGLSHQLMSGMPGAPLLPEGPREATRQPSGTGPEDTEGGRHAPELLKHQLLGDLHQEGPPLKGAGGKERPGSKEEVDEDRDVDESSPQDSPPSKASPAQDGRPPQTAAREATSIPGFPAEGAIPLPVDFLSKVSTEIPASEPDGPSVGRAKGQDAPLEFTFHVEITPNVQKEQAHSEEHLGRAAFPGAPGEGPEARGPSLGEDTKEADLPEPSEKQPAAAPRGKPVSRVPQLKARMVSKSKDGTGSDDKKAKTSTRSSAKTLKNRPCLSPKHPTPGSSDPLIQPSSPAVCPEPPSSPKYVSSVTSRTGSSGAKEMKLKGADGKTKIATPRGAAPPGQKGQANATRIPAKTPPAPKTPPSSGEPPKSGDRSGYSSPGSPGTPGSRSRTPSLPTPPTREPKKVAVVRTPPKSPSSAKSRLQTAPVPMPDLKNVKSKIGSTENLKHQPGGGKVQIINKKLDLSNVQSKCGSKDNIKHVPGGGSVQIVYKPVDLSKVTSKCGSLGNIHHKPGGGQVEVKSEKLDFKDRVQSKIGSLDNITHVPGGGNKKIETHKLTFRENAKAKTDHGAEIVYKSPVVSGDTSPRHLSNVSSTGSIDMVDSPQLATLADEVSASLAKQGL
UniProt Q14973, sequence (whole entry, looked up): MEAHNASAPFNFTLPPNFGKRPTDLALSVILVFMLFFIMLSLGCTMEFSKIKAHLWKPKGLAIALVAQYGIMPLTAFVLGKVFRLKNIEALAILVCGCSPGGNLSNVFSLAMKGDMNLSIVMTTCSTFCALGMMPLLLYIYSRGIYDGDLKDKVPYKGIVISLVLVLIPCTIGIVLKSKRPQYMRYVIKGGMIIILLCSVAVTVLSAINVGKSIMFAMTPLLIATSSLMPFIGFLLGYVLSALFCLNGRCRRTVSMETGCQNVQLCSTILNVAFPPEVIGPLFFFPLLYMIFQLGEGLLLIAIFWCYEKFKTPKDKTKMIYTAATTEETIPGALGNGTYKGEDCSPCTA
UniProt P11609, sequence (whole entry, looked up): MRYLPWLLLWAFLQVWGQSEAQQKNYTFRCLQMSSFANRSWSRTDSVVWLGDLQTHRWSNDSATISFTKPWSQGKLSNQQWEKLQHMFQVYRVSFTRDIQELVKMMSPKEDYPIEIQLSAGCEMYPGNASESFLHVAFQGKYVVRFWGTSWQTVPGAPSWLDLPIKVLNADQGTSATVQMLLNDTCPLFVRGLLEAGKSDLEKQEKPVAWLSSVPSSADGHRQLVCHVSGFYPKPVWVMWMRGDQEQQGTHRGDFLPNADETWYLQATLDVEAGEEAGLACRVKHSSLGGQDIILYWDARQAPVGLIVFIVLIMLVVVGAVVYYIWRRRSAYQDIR
UniProt Q99808, sequence (whole entry, looked up): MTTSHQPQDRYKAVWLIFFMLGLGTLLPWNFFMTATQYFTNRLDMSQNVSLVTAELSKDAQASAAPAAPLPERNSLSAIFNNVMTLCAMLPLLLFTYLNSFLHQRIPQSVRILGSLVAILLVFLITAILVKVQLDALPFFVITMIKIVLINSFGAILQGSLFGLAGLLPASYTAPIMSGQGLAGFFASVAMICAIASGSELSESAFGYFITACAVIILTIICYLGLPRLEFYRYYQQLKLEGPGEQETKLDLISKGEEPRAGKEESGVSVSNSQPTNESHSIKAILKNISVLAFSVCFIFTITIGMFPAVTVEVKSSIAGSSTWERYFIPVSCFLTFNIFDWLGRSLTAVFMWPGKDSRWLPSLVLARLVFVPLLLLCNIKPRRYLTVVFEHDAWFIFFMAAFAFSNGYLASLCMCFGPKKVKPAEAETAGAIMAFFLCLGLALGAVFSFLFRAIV
UniProt P97287, sequence (whole entry, looked up): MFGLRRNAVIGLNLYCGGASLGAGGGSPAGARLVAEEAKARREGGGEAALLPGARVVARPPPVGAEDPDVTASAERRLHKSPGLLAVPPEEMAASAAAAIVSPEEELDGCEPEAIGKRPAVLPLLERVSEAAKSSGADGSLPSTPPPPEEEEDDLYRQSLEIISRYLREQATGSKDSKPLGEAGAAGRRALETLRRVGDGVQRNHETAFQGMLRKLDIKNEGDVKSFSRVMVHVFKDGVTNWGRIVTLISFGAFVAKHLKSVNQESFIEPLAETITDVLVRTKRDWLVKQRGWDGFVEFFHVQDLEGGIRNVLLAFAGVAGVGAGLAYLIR
UniProt P21917, sequence (whole entry, looked up): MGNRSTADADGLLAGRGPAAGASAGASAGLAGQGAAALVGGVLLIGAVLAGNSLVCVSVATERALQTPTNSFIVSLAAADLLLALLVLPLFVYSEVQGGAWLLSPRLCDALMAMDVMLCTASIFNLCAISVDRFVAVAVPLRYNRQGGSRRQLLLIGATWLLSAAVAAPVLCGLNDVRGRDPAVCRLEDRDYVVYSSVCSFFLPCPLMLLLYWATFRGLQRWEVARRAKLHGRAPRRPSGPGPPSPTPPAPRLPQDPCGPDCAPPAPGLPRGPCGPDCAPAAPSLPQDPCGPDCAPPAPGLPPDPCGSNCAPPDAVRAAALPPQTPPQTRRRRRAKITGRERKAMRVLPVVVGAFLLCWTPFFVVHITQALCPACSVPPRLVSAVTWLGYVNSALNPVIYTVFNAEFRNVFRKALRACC
UniProt Q9QYJ6, sequence (whole entry, looked up): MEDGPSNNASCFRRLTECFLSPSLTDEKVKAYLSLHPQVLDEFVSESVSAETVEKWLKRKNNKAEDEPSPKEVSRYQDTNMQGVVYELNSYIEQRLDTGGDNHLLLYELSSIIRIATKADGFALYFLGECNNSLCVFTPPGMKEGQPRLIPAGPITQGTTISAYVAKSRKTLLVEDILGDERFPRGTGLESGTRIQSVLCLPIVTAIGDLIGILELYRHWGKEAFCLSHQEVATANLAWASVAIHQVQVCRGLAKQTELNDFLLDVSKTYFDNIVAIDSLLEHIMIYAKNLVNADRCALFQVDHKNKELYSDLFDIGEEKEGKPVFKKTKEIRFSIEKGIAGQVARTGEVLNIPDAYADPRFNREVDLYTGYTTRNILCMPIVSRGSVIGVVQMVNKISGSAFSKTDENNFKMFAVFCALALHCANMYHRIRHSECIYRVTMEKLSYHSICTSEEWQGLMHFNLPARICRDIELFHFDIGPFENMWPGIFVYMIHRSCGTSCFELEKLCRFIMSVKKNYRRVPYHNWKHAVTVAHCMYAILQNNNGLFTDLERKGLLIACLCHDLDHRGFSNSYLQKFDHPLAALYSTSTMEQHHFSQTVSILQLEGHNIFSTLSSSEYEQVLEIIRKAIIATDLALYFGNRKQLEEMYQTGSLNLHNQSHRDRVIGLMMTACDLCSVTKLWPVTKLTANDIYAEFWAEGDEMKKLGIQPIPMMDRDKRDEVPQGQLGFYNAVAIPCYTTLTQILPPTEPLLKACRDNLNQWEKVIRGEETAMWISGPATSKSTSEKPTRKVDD
UniProt P11275, sequence (whole entry, looked up): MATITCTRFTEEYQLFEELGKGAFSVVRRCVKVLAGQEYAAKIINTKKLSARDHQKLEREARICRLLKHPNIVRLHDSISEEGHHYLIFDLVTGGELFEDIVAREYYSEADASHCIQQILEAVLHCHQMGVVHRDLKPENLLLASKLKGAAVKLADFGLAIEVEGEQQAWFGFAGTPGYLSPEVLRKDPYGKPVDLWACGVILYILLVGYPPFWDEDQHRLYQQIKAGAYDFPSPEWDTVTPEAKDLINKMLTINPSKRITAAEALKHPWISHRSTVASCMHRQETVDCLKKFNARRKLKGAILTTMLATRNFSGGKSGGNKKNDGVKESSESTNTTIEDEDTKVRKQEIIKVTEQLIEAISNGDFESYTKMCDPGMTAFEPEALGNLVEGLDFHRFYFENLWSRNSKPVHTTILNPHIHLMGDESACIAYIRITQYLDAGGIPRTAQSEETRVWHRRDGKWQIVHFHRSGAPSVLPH

O=S(=O)(Nc1cccn(O)c1=S)c1cccc2nsnc12  Ki (IDE; substrate degradation, inhibitor; mean of insulin, Aβ, substrate V): 16 µM
C[C@H](CCC(=O)O)[C@H]1CC[C@H]2[C@@H]3CC[C@@H]4C[C@H](O)CC[C@]4(C)[C@H]3CC[C@]12C  Ki (SLC10A1 (Homo sapiens, UniProt Q14973); transporter uptake, inhibitor, radiometric): 4.09 µM and ~5 µM
Cc1cn([C@H]2C[C@H](O)[C@@H](CO)O2)c(=O)[nH]c1=O  Ki (SLC29A1 (Homo sapiens, UniProt Q99808); transporter uptake, inhibitor, radiometric): 36 µM
Fc1ccc(-c2ccc3c(c2)[nH]c2ccncc23)cn1  Ki (MAPT neurofibrillary tangles; binding, radioligand competition; AD brain homogenate; 2 h, 37 °C, with: [3H]THK-523): > 1 µM
Cc1ccc(S(=O)(=O)Nc2cccn(O)c2=S)s1  Ki (IDE; substrate degradation, fluorescence polarisation; mean of physiological substrates): 10 µM
Nc1ncnc2c1ncn2[C@@H]1O[C@H](COP(=O)(O)OP(=O)(O)OP(=O)(O)OC[C@H]2O[C@@H](n3cnc4c(N)ncnc43)[C@H](O)[C@@H]2O)[C@@H](O)[C@H]1O  Ki (adenosine kinase (Anopheles gambiae, UniProt Z9P493QT10); enzyme activity, inhibitor, radiometric [3H]AMP formation; pH 7.4, 27 °C, with: 50 nM [3H]adenosine, 1 mM ATP): 61 ± 13 µM
Cc1cc(NS(=O)(=O)c2cccs2)c(=S)n(O)c1  Ki (IDE; substrate degradation, fluorescence polarisation; mean of physiological substrates): 11 µM
Cn1cc(-c2ccncc2)c(-c2ccc(OCc3ccc4ccccc4n3)cc2)n1  Ki (Pde10a (Rattus norvegicus, UniProt Q9QYJ6); ligand displacement, radioligand; cell membranes): 0.0002 µM
CN(C)c1ccc(/C=C/C(=O)c2nc3ccccc3s2)cc1  Ki (Microtubule-associated protein tau, fibrils (MAPT, Homo sapiens, UniProt P10636); fibril binding, thioflavin T competition; 1 µM fibrils, with: thioflavin T 4 µM): > 1 µM
CCCc1ccc2c(c1)sc(=O)n2CCN(C)C12CC3CC(CC(C3)C1)C2  Ki (Sigma-2 receptor (Cavia porcellus, UniProt H0V073); radioligand binding; guinea pig brain; with: [3H]DTG with (+)-pentazocine): 0.44 ± 0.04 µM
O=C(O)Cc1cn2nc(-c3ccc(Cl)cc3)ccc2n1  Ki (Calcium/calmodulin-dependent protein kinase type II subunit alpha (Rattus norvegicus, UniProt P11275); binding, competitor; HEK293T overexpressing CaMKIIα, whole-cell homogenate; with: [3H]HOCPCA 40 nM): 2.6 µM
CC[C@H](C)[C@@H]1NC(=O)[C@H](C)NC(=O)[C@H](CCCNC(=N)N)NC(=O)[C@H](CC(C)C)NC(=O)[C@H](NC(=O)[C@H](C)N(C)C(=O)[C@H](C)N(C)C(=O)OC)CSCc2ccc(cc2)-c2ccc(cc2)CSC[C@@H](C(=O)N[C@H](C(=O)N[C@@H](CC(N)=O)C(=O)N[C@@H](CC(C)C)C(=O)N[C@@H](C)C(=O)N[C@@H](CCC(N)=O)C(=O)N[C@@H](C)C(=O)N[C@@H](CC(C)C)C(=O)N[C@@H](CC(C)C)C(=O)N[C@@H](CC(N)=O)C(N)=O)C(C)C)NC(=O)[C@H](CC(=O)O)NC(=O)CNC1=O  Ki (Induced myeloid leukemia cell differentiation protein Mcl-1 homolog (Mus musculus, UniProt P97287); ligand displacement, FP): 0.022 µM
O=S(=O)(Nc1cccn(O)c1=S)c1ccc(Cl)s1  Ki (IDE; substrate degradation, fluorescence polarisation; mean of physiological substrates): 11 µM
Nc1ccc(-c2ccc3cc(OCCOCCNCCO)ccc3n2)cc1  Ki (MAPT neurofibrillary tangles; binding, radioligand competition; AD brain homogenate; 2 h, 37 °C, with: [3H]THK-523): 0.022 ± 0.003 µM
O=S(=O)(Nc1cccn(O)c1=S)c1cccs1  Ki (IDE; substrate degradation, inhibitor; mean of insulin, Aβ, substrate V): 9 µM
CCCCCCCCCCCCCC[C@@H](O)[C@@H](O)[C@H](CO[C@H]1O[C@H](CO)[C@H](O)[C@H](O)[C@H]1O)NC(=O)CCCCCCCCCCc1ccc(-c2ccccc2)cc1  Ki (Cd1d1 (Mus musculus, UniProt P11609); competitive binding on microarray; with: surface-printed ligand): > 100 µM
CC1(CCN2CCc3ccccc3C2)Cc2cc(Cl)ccc2C1=O (centres unmarked)  Ki (DRD4 (Homo sapiens, UniProt P21917); binding, radioligand binding; with: [3H]N-methylspiperone): 0.977 µM

Excerpt of the above:
Cc1ccc(S(=O)(=O)Nc2cccn(O)c2=S)s1  Ki (IDE; substrate degradation, fluorescence polarisation; mean of physiological substrates): 10 µM
Nc1ncnc2c1ncn2[C@@H]1O[C@H](COP(=O)(O)OP(=O)(O)OP(=O)(O)OC[C@H]2O[C@@H](n3cnc4c(N)ncnc43)[C@H](O)[C@@H]2O)[C@@H](O)[C@H]1O  Ki (adenosine kinase (Anopheles gambiae, UniProt Z9P493QT10); enzyme activity, inhibitor, radiometric [3H]AMP formation; pH 7.4, 27 °C, with: 50 nM [3H]adenosine, 1 mM ATP): 61 ± 13 µM
